Published values collected from several papers.
Numbered parts are unrelated; each lists some results of a single study.

Set 1 — method: RNA Bind-n-Seq; molecule type: RNA; sample: in vitro; tested at: not given; relative to: input RNA pool; direction: higher = stronger binding
Target: RING finger protein unkempt homolog, zinc fingers 1-6, GST-SBP tag (UNK, Homo sapiens, UniProt Q9C0B0, residues 30-357)
Notes: RNA with constant flanks, human and mouse sites, ends assumed
Shared flanks, not repeated: GGGAGUUCUACAGUCCGACGAUC … CAACAGAGGAUUGAGCAUCA
Target sequence (chain): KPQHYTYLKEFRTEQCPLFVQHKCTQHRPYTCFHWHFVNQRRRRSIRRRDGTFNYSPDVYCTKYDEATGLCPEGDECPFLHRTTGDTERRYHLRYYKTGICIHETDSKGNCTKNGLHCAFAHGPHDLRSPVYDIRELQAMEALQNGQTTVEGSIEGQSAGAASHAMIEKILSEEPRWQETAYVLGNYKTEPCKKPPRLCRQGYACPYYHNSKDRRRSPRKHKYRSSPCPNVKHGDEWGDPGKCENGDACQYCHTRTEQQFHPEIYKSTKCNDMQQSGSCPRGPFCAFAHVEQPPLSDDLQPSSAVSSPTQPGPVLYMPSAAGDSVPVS
| Oligonucleotide | bound/input enrichment [ratio] |
| --- | --- |
| CGGGAGCGGCAGCAGAGGGGGCAUAGACACUCGGAGCAGCCUCAGCGUCUCCUCGUCAUUCCUGCCGUGGCCCGCAGUGCCCGACUCUUGGGUUCCCACUGAAGACGCUGCGCGCUGCUG | 0.184 |
| AAGCCUGGCCCCGAUGGUCUCCGUGGAAUCCCUGGUCCUGUGGGUGAGCAAGGCCUCCCAGGAUCCCCAGGCCCCGAUGGUCCACCCGGCCCCAUGGGUCCUCCAGGACUCCCUGGCCUC | 0.111 |
| GAGCUGAGUUUAAUCAGGUGUCCAAAAUGUGAGUUAAACAUUACCUUAUAUUUACACUGUUAGUUUUUAUUGUUUUAGAUUUAUUAUGCUUCUUCUGGAAGUAUUAGUGAUGCUACUUUU | 527 |
| GAAGAUGGGCCUCCAGAACUCCUGUUUAUUCAUGGAGGACACACUGCUAAGAUUUCAGAUUUUAGCUGGAACCCCAAUGAGCCUUGGGUCAUUUGCUCAGUGUCUGAGGAUAACAUCAUG | 0.123 |
| UGAUAACUGUUCCAACGGCCCUUCUGGCUCCAGUCAUGGUGCAAGAGUAGAUUAAGGAUGUUGUCUCUAGGACUGUGUACAGAGACUCUGGAGCGGCCCCUCCGUGUAAGCCCCCUGAGA | 0.276 |
| ACCACGCAUCUGUUUUGUCCCACAAUGCGCUUUUCUCUCCCAAAUCCCGAUUUCUGCUGUCAUAGCCUCUAUUCAAUUUUUAUUUAUUGUCUGCCCUCCACUUAUACAAUCGUAGAGAGC | 5.21 |
| UUAGCUAAACAUCCAUGUAAUGCCUCAAUGGAAUGUGACAAGUGUCAGAGGCGGCAGAAGAAUAGAGCAUUUUGCUACUUUUGUAAUUCUGUACAGAAGUUACCAAUUUGUGCACAGUGU | 0.683 |
| UUUAUCCGAACACUUCUGGCUGUUACACGACCAUUUAUCAGUUCAAAGUUCAGUCAGAAGAUCAGAUACGUCUUUAACUUGGCCGAGCUGGCAGAGCUUGUUCCCAUGGAGUAUGUCGGC | 0.159 |
| CGCAACCUGUCACAUAAUAGGCGUGUGCCAAAAAUCGGGCCUUACCCAGAUUAUUCCUCUUCCUCAUAUAUUGAAGACUCUAUCCAUCAUACUGACAGCAUUGUGAAGAAUAUUUCCUCU | 0.33 |
| GGAAAGUCCUGGCUGCCGGAACGCCUCAGUGAGGUAAAGUCUCUUGGCGUUUUGACUGGGACCAGCCCAGCCAUUCUCAGCCUCUCGACAUGUAAUUUCAUUUCUUUUACGAAAGCUCGU | 0.0603 |
| GAAGACACAGAAGCAAAGAACCCAUUUUCUACUCAGGACACAGAUUUAGACUUGGAGAUGUUAGCUCCCUAUAUCCCAAUGGAUGAUGACUUCCAGUUACGUUCCUUCGAUCAGUUGUCA | 0.388 |

Set 2 — method: RNA Bind-n-Seq; molecule type: RNA; sample: in vitro; tested at: 365 nM; relative to: no-protein control; direction: higher = stronger binding
Target: RNA binding protein fox-1 homolog 2, RRM domain, GST-SBP tag (RBFOX2, Homo sapiens, UniProt O43251-10, residues 100-194)
Notes: natural RNA segment, single round, ends assumed
Shared flanks, not repeated: GGGAGUUCUACAGUCCGACGAUC … UGGAAUUCUCGGGUGCCAA
Residues (chain): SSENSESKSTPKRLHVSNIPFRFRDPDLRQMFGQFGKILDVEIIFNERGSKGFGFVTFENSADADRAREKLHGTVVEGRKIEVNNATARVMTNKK
| Oligonucleotide | RBNS enrichment (R) |
| --- | --- |
| AAAAUCACUAUUAAUUUCUGAAUCCUUUGCCUGUGGGUAGGAAGAGAAUGGCUGCCAGUGGCUGAUGGGUCCCGGUGAUGGGAAGGGUAUCAGGUUGCUGGGGAGUUUCC | 3 |
| GGUGUUCAGCUUCGACAAAGAUGACGUUUUCUGAGAACUUAGUCCGUCCGUACCCAGCUAACCUCUCUCCCAUGCUGGAUGAAGAAGUUCUUAACUUCCCAAGCUGCAGA | 0.216 |
| AAGCAUCUUUUGGUUAUCAGUUAAAUUGAGGUGGACAUUAUUUCCCCAAUUUCACAACAGGAUUCAUAUUGUUAAUUUAUAAAGCUAGACUUGGAGAAUUAAGGACUGAG | 0.503 |
| UUCCUGGCCUGGCCAGAGCUGGAGCCCCCACAGGGUAAGGAAGAGAGAGUGGGAGGCAGAGUGUGAUGGGGAGGAGGGACAGGAAGACCCUUUUAAUGAUGAGGGUAACU | 1.11 |
| GACUGUCUGUCUGUCCAGUAAGGAUUUCUGCCCCCAUCUAAUUGUGUGGCACCCAGUUUUUCCAUGUAGGUCAUUAUACCUGGAUGAUAACAUCAAUUUAGUUACAAUGC | 0.272 |
| UGGAUGGGUGUCGACCUUGCAGCAGAGAAGGCGAUAAACAAGCUGAUGAGGAUAUCCAAGGAACCCAAAACCUGCUAACAUCGGUUGAAUCUGAAACGGCAGCUUCUGAG | 0.576 |
| CCAGGCCGUCUCUUGCUCCCUAAUUCAUUUCCCAGGAAGCUGUGAUACAGGGUGAAAUAAAGUCUUGUCUUAGAAACCAGGACCCUAAACCCCACACUAUGUAAUAGAAA | 0.345 |
| UGAUCACAGGUGAUUCACACGUACACACAUAAACACACCCACCAGUGCAGCCUGAAGUAACUCCCACAGAAACCAUCAUCGUCUUUGUACAUCGUAUGUACAAUGCAAUC | 0.546 |
| GCGGAAGUCAUCAAGCACUUGGGCGUUCUGCUCCGAUGCAGCUGUGGCCAGCGGUCAGGCUGCUGAGCCGGGUUUCUGGAUAUGCUGCUGCUGUUGAAUCCACUGACUUG | 0.272 |
| CUGUUUGUCAUAUCAGAAGCCAUGGAAUAAUAAACCCAGGGGAAUCCAGAAACCACACUUAGUGGUAACCCUGGUGCUCUCUAGAAUCUCCAAAUGAGCUGCUAUAAAAC | 0.38 |
| CUUGGGUGCAGCCAUCACUGGAUUUUGAUCGUCAGGCCAGCAGGAUGGAUGACAUCUCAUUGAUAGUACCCAGAUGUUGGUGGCUUUCUGAGUUGCCUGUUUACUGUUGA | 0.421 |
| UACACACACACACAUUUACACACGCAGGACUCUGGAGCCAGAGUAGAGGCUGUGGCCCAGGCACUACCUGCUGGCUCCCACCUAUGGUUUGGGGGCCAUACCUGUUCCAG | 0.764 |

Set 3 — method: protein binding microarray; molecule type: double-stranded DNA, one strand shown; sample: in vitro; tested at: not given; relative to: not given; direction: higher = stronger binding
Target: Histone acetyltransferase KAT6A, winged helix 2, GST fusion (KAT6A, Homo sapiens, UniProt Q92794, residues 85-181)
Notes: 8-mer, flanks averaged, mean of 2 arrays, mostly near background
Construct (chain): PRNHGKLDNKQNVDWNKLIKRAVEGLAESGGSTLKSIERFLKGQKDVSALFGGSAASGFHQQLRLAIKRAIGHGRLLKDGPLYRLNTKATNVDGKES
| Oligonucleotide | E-score |
| --- | --- |
| CCAGCGTC | 0.0434 |
| AAGAGACC | 0.13 |
| ACAGGTCG | 0.00047 |
| AATCGGAT | 0.129 |
| CAACAGCG | -0.0962 |
| GAGGGCGC | 0.115 |
| GGGCTACA | 0.0232 |
| ATTCTTGG | 0.0662 |
| AGGCAGAC | 0.00547 |
| GATCTATA | 0.059 |
| ATTGGCTG | -0.042 |
| CACTTGCC | -0.0453 |
| GAAAAACC | 0.0759 |
| ATGAAAAC | 0.168 |
| AAACCAGG | -0.0514 |
| AACAAGGT | -0.099 |
| GTTTTACA | -0.109 |
| CGTTGCAC | 0.179 |
| ACTAACAC | -0.0661 |
| TCACATCA | -0.0648 |
| CTGTGCAC | -0.101 |
| GGGTTACC | -0.14 |
| GCGCGAAC | 0.246 |
| GAAAAAGA | 0.125 |
| ACGGGTAA | -0.0625 |

Set 4 — method: RNA Bind-n-Seq; molecule type: RNA; sample: in vitro; tested at: 200 nM; notes: whole 134-nt RNA, ends assumed; added: 150 mM KCl; relative to: input library; direction: higher = stronger binding
Target: Fragile X messenger ribonucleoprotein 1, C-terminal low-complexity region (Fmr1, Mus musculus, UniProt P35922)
Shared flanks, not repeated: GGGAGUUCUACAGUCCGACGAUC … UGGAAUUCUCGGGUGUCAAGG
| Oligonucleotide | log2 enrichment |
| --- | --- |
| CAAGUCCUGUGCUACACAUCGUAUGUACCGAAUCGGGGCCCGGGGCCCGGGCCCGGAAAGUAUUAUGUUACGCCGUUCGGAUCUGCACUU | -0.828 |
| UAACUUUAGAGGAGGAUCUGAUGGAUAUGGCAGUGGACGUGGAUUUGGGGAUGGCUAUAAUGGGUAUGGAGGAGGACCCGGAGGUGGCAA | 0.166 |
| AAGUCCUGUGCUACACAUCGUAUGUACCGAAUCGGGGUGGGGAAAGGGGAAAGGGGAAAGUAUUAUGUUACGCCGUUCGGAUCUGCACUU | 0.823 |
| ACCAUGCAGGUGGGCAUCUUUGGGAAGUGGGGCAAGGAAAGGAUAGGGAGGGGGGUAACACUUUGGGAACAGGUGGUCCCAGGUCGUUUC | 0.498 |
| AGUGGGUUUGUUGAAGCAGUUGCUGGUGCAACAGCUAGGUUUGACUGAGAAGAGCGUUCAGGAAGACUGGCAACAUUUCCCAAGAUACAG | -1.78 |
| CACAGACAACACGCACCCACACAGACACAGAGGGAAGGGGUUGGGAUGGGGACAGGGUGCACAGAAGGGCGGGGUAGGACCCCAGCCCCU | 1.25 |
| UGGGAGGUGGAUUUUGUUUAUUUUUUUAGGUCAUUUCCAGGGGUGGGAAUUUUUUUUUAAUAUGUGUCAUGAAUAAAGUUGUUUUUGAAA | 0.246 |
| UCCUCAAGUCCUGUGCUACACAUCGUAUGUACCGAAUCGGCGGCGGCGGGGAAAGUAUUAUGUUACGCCGUUCGGAUCUGCACUUCCAGC | 0.00459 |
| CUCAAGUCCUGUGCUACACAUCGUAUGUACCGAAUCGGUUGGUUGGGUUGGGGAAAGUAUUAUGUUACGCCGUUCGGAUCUGCACUUCCA | -0.0918 |
| CACAGACAACACGCACCCACACAGACACAGAGGGAAGGGGUUGGGAUGGGGACAGGGUGCACAGCAGGGCGGGGUAGGACCGCAGCCCCU | 1.17 |
| GUCCUGUGCUACACAUCGUAUGUACCGAAUCGGGAGGGAAAAAAAGGGUUUUUUUGGGAAAGUAUUAUGUUACGCCGUUCGGAUCUGCAC | -0.18 |
| UAACUUUAGAGGAGGAUCUGAUGGAUAUGGCAGUGGACGUGGAUUUGGGGAUGGCUCUAAUGGGUAUGGAGGAGGACCUGGAGGUGGCAA | 0.268 |
| CAAGUCCUGUGCUACACAUCGUAUGUACCGAAUCGGGGAGGGGUUUGGGGUGGGGAAAGUAUUAUGUUACGCCGUUCGGAUCUGCACUUC | 1.58 |
| CCUGUGCUACACAUCGUAUGUACCGAAUCGGGGAGGGGAAAAAAAGGGGUUUUUUUGGGGAAAGUAUUAUGUUACGCCGUUCGGAUCUGC | 0.253 |

Some of these lines once more (set 3):
| Oligonucleotide | E-score |
| --- | --- |
| ATGAAAAC | 0.168 |
| AAACCAGG | -0.0514 |
| AACAAGGT | -0.099 |
| GTTTTACA | -0.109 |
